Experimental data from different studies.
± marks the error that the study gave.
Target: Aurora kinase B (AURKB, Homo sapiens, UniProt Q96GD4)
Sequence of UniProt Q96GD4 (whole entry, looked up): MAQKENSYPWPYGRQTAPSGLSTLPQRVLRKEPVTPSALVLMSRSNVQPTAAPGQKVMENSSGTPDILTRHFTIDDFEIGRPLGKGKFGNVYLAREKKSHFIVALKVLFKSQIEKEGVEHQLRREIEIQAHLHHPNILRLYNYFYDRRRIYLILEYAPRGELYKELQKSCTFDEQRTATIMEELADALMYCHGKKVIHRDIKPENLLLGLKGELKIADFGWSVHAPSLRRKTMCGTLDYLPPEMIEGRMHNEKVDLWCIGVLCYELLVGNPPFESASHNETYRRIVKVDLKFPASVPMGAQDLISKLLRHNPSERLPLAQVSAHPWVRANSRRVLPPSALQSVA

Structure (SMILES) = CC[C@H](C)[C@H](NC(=O)[C@H](Cc1ccc(O)cc1)NC(=O)CNC(=O)[C@H](Cc1ccccc1)NC(=O)[C@H](CCSC)NC(=O)[C@@H](NC(=O)[C@H](CC(C)C)NC(=O)[C@H](Cc1ccc(O)cc1)NC(=O)[C@@H](NC(=O)[C@H](Cc1ccccc1)NC(=O)[C@@H]1CCCN1C(=O)[C@@H](N)CS)C(C)C)[C@@H](C)CC)C(=O)N[C@@H](Cc1ccc(O)cc1)C(=O)N[C@@H](CCCNC(=N)N)C(=O)N[C@@H](CC(C)C)C(=O)N[C@@H](CC(=O)O)C(=O)N[C@@H](CC(C)C)C(=O)NCC(=O)NCC(=O)N[C@@H](CO)C(=O)NCC(=O)NCC(=O)N[C@@H](CCCCN)C(=O)N[C@@H](Cc1ccccc1)C(=O)N[C@@H](CCC(=O)O)C(=O)N[C@@H](CCCNC(=N)N)C(=O)N[C@@H](CCC(N)=O)C(=O)O; test = degrader, immunoblotting; test system = SUP-B15, HAL-01, RS4;11, BALL-1; conditions = 24 h; measurement = concentration for complete degradation; value = 1 µM
Structure (SMILES) = Cc1cc(Nc2cc(N3CCN(C)CC3)nc(Sc3ccc(NC(=O)C4CC4)cc3)n2)[nH]n1; test = kinase activity; conditions = 0.03 µM; how to read = baseline: control; measurement = remaining activity; value = 4%
Structure (SMILES) = Cc1ncsc1-c1ccc(CNC(=O)[C@@H]2C[C@@H](O)CN2C(=O)[C@@H](NC(=O)CCCCCCCCC(=O)N(CCO)CCCOc2ccc3c(Nc4cc(CC(=O)Nc5cccc(F)c5)[nH]n4)ncnc3c2)C(C)(C)C)cc1; test = degrader, western blot; test system = PC-3 cells; conditions = 1 µM, 24 h; measurement = degradation; value = > 70%
Structure (SMILES) = C=CC(=O)N1CCC([C@@H]2CCNc3c(C(N)=O)c(-c4ccc(Oc5ccccc5)cc4)nn32)CC1; test = kinase activity, inhibitor, HotSpot radiometric; conditions = 100 nM, added: ATP 10 µM; measurement = remaining activity; value = 101 ± 6.2%
Structure (SMILES) = Cc1cc(-c2ccnc3[nH]cc(F)c23)cc(F)c1[C@@]1(O)[C@H](C)CN(C2CCS(=O)(=O)CC2)C[C@@H]1C; test = ATP/ADP probe binding, KiNativ; test system = HEK293T lysate; conditions = 1 µM, Lys1 peptide; measurement = probe labelling inhibition; value = 41.4%
Structure (SMILES) = COc1ccc(F)cc1C(=O)NCc1ccc(-c2nn([C@@H](C)C(F)(F)F)c(N)c2C(N)=O)cc1; conditions = 1000 nM, added: ATP at Km; measurement = remaining activity; value = 87.1 ± 1.6%
Structure (SMILES) = Cc1cc(-c2ccnc3[nH]cc(F)c23)cc(F)c1[C@@]1(O)[C@H](C)CN(C(=O)CN)C[C@@H]1C; test = ATP/ADP probe binding, KiNativ; test system = HEK293T lysate; conditions = 0.1 µM, Lys1 peptide; measurement = probe labelling inhibition; value = -25.7%
Structure (SMILES) = C=CC(=O)N1CCC[C@@H](n2nc(-c3ccc(Oc4ccccc4)cc3)c3c(N)ncnc32)C1; conditions = 10 µM; measurement = remaining activity; value = 130%
Structure (SMILES) = Cc1ncsc1-c1ccc([C@H](C)NC(=O)[C@@H]2C[C@@H](O)CN2C(=O)[C@@H](NC(=O)CCCCCCCCC(=O)N(CCO)CCCOc2ccc3c(Nc4cc(CC(=O)Nc5cccc(F)c5)[nH]n4)ncnc3c2)C(C)(C)C)cc1; test = degrader, Western blot; test system = K562; conditions = 1 µM, 24 h; measurement = degradation; value = > 60%
Structure (SMILES) = C=CC(=O)N1CCC[C@@H](n2nc(-c3ccc(Oc4ccccc4)cc3)c3c(N)ncnc32)C1; test = kinase activity, inhibitor, HotSpot radiometric; conditions = 100 nM, added: ATP 10 µM; measurement = remaining activity; value = 78.2 ± 0.9%
Structure (SMILES) = O=C1NC(=O)/C(=C/c2ccc(-c3ccc(F)cc3O)o2)S1; test = enzyme activity; conditions = 10 µM; measurement = remaining activity; value = 71%

Excerpt of the above:
Structure (SMILES) = COc1ccc(F)cc1C(=O)NCc1ccc(-c2nn([C@@H](C)C(F)(F)F)c(N)c2C(N)=O)cc1; conditions = 1000 nM, added: ATP at Km; measurement = remaining activity; value = 87.1 ± 1.6%
Structure (SMILES) = C=CC(=O)N1CCC[C@@H](n2nc(-c3ccc(Oc4ccccc4)cc3)c3c(N)ncnc32)C1; test = kinase activity, inhibitor, HotSpot radiometric; conditions = 100 nM, added: ATP 10 µM; measurement = remaining activity; value = 78.2 ± 0.9%
